Published values from different studies.
Each numbered part is a random draw from the data of one study; scales do not carry over between parts.

Study 1 — method: universal PBM; form: double-stranded DNA, one strand shown; sample: in vitro; tested at: not given; direction: higher = stronger binding
Target: Sal-like protein 4, full length isoform B (SALL4, Homo sapiens, UniProt Q9UJQ4-2, residues 1-616)
Setting: 8-mer, flanks averaged, mean of replicates
`CGGTGTAG` has an E-score of -0.0871.
`AGCACTTA` has an E-score of 0.0488.
`AGTCGTGC` gave an E-score of -0.312.
`TCCCATAA` gave an E-score of 0.258.
The E-score of `CGGAGCAC` is reported as -0.176.
The E-score of `AGTAGGCC` is reported as -0.181.
The E-score of `ATACTTGC` is reported as 0.224.
`AGATGGAC` has an E-score of -0.0124.
For `AAAAAGCA`, the E-score was 0.134.
With `GCAGTCTA` the E-score was 0.0567.
`GGCACGCC` has an E-score of -0.466.
The E-score of `TAACTCAA` is reported as 0.239.
`GTCTTCTA` has an E-score of 0.121.
`ACCTGCGT` has an E-score of -0.128.
For `CCGGTTCC`, the E-score was -0.402.
`CACGAACG` gave an E-score of -0.0432.
`CGGTCGAC` gave an E-score of -0.23.
`AACTTGCC` has an E-score of -0.0662.
`AGTAGACG` has an E-score of 0.0736.
`CGTGGGGA` has an E-score of -0.216.
The E-score of `CGATTGAC` is reported as 0.0167.

Study 2 — method: protein-binding microarray; form: double-stranded DNA, one strand shown; sample: in vitro; tested at: 250 nM; setting: 60-bp whole probe; with: salmon DNA 0.4 mg/ml; baseline: random background probes; direction: higher = stronger binding; shared flanks, not repeated: GCCTAGCAC … GTCTTGATTCGCTTGACGCTGCTG
Target: Interferon regulatory factor 7, full length, phosphomimetic (IRF7, Homo sapiens, UniProt Q92985, residues 1-503, S101K/S471D/S472D/S475D/S476D/S477D/S483D/S484D/S487D)
Residues (chain): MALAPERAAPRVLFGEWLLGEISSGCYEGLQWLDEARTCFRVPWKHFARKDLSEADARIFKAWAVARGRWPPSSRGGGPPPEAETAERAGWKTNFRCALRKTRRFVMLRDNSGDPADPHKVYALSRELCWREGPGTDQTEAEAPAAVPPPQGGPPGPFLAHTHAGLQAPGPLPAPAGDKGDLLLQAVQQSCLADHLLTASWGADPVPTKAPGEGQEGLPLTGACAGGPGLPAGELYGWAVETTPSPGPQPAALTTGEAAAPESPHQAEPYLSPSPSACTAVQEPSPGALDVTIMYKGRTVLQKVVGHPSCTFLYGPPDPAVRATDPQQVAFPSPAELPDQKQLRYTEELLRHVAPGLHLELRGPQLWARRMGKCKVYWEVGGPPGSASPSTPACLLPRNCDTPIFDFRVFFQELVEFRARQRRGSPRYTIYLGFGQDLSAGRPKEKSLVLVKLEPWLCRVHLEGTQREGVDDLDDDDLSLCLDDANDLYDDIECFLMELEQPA
For `GACGTTTTCCTACTGCTGACGTGCTAG`, the log fluorescence was 1.62 z-score.
For `TTAGGTTTCACTTTCCAAAAGTGCTAG`, the log fluorescence was 10.7 z-score.
`TTAGATCACAGTATCGATTAGTGCTAG` gave a log fluorescence of 1.26 z-score.
`TTACGTTTCCTTATCCTTTAGTGCTAG` gave a log fluorescence of 2.32 z-score.
`TTAGAACTGGGTCTCGGTTAGTGCTAG` gave a log fluorescence of 0.937 z-score.
For `TTAGGTCTCCTTTTTCTTTAGTGCTAG`, the log fluorescence was 1.09 z-score.
`GAACATACTAGTTTCCATTTGTGCTAG` has a log fluorescence of 8.52 z-score.
`TTAGGACTGTGTTTCGGTTAGTGCTAG` gave a log fluorescence of 3.72 z-score.
With `TTAGGTGTCGGGTATCGGTTAGTGCTA` the log fluorescence was 0.433 z-score.
`CGCTCCCTTTATTCCACATTGTGCTAG` has a log fluorescence of 1.11 z-score.
For `TTTCTTTTCATTACTGCATTGTGCTAG`, the log fluorescence was 4.52 z-score.
`TCATTTTTTTTTTTTACACTGTGCTAG` has a log fluorescence of 1.2 z-score.
`CAGCCTTTGCCTCATCTTGCAGTGCTA` has a log fluorescence of -0.177 z-score.
`TTAGGACTGCTCCTCCTTTAGTGCTAG` gave a log fluorescence of -0.106 z-score.
`GGCGATTTCGGGTATCGAGACGTGCTA` has a log fluorescence of 0.474 z-score.
The log fluorescence of `TCAACTCTGAACCTTGGACTGTGCTAG` is reported as 0.045 z-score.
The log fluorescence of `TCACTAGTGTTTTTCTCACTGTGCTAG` is reported as 0.0347 z-score.
The log fluorescence of `TTAAGACTGGGTTTCGGTTAGTGCTAG` is reported as 6.78 z-score.
With `GACGATTGCGGGTATCGAGACGTGCTA` the log fluorescence was -0.453 z-score.

Study 3 — method: RNA Bind-n-Seq; form: RNA; sample: in vitro; tested at: 365 nM; baseline: no-protein control; direction: higher = stronger binding
Target: RNA binding protein fox-1 homolog 2, RRM domain, GST-SBP tag (RBFOX2, Homo sapiens, UniProt O43251-10, residues 100-194)
Setting: natural RNA segment, single round, ends assumed
Target sequence (chain): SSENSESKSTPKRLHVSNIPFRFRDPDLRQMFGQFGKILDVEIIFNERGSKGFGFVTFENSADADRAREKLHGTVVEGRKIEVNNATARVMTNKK
`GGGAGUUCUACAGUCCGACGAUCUAUAACUUGAAUUUUAAAGAUAGUAGCAUUUUGAAGAUGCUUAAUAACCUUUUUAGGAAUAUGGAGAUAAAGAUUGUUUUUCUGAUUUUCUUCCAUCUGAAGUUUGACUUUGGAAUUCUCGGGUGCCAA` — result for “RBNS enrichment (R)”: 0.351.
Under “RBNS enrichment (R)”, `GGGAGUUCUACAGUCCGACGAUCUCCUCCGUCCAGCCGCCAUUGCCACCAGGAGAACCACUACAUGCAGCCCAUGCCCACCUGCCCAUCACAGGGUUGGGCCCAGAUCUGGUCCCUUGCAGCUAGUUUUCUAGUGGAAUUCUCGGGUGCCAA` is recorded as 0.418.
`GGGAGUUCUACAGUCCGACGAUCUUUGAACAUUUUGUCCCCUUUCCAGUGAAAAACUAAAAAGUAGUCAUCUGCCAUUACUGUUAUUUGCUGAUUUUAUUUUAUUUUGAUGGUAAUAUUCUAUCCUUAUGACAUGGAAUUCUCGGGUGCCAA`: “RBNS enrichment (R)” 0.343.
`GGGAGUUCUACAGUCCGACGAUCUCCUAUUAAAUAAGAUUAUUUUAAGUUUUAGUGUCAACAUUGCAAUGCCAAUAGUAGGUGAGAGUGUAUUGCACAGAGUUGGAGAUAGUAAGGUGGUGACAUUUAACACAUGGAAUUCUCGGGUGCCAA`: “RBNS enrichment (R)” 0.807.
Under “RBNS enrichment (R)”, `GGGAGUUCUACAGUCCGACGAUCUUCACCUCUAUCCAAAGAACUUGAUUUGCAUGGAUUUUGGAUAAAUCAUUUCAGUAUCAUCUCCAUCAUAUGCCUGACCCCUUGCUCCCUUCAAUGCUAGAAAAUCGAGUUGGAAUUCUCGGGUGCCAA` is recorded as 2.92.
`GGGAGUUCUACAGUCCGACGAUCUAAUCAAAGCUAUGCAUUUCAUAUAGCUUUUUCAUUUAAAACAAGACAAAGAAACAAAUUCCUAUGACCAAAUUGCUUGCCUACAGUUCCCUGCAGUAAUUGUAUGAUCUUGGAAUUCUCGGGUGCCAA`: “RBNS enrichment (R)” 4.28.
`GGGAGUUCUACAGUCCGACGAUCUUGGACAAUUUAGGAAUUUUAAACUUUAGAUGAUCAUUUGGUUCCAUUUUUAUUUCAUUUUUAUUUUUGUUAAUGCAAACAGGACUUAAAUGAACUUUGAUCUCUGUUUUUGGAAUUCUCGGGUGCCAA` — result for “RBNS enrichment (R)”: 0.653.
`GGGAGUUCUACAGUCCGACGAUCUUCAGUAUGUGUAACUUGAAGCUAAUUUGUACUACUGGAUAUCUGACUGGAGCCACAGAUACAGAAUCUGUAUUGUUCUUACUGAAACACAGCAUGGAAUUAACAUUAAAUGGAAUUCUCGGGUGCCAA`: “RBNS enrichment (R)” 0.806.

Study 4 — method: EMSA with sequencing; form: double-stranded DNA, one strand shown; sample: in vitro; tested at: 10 and 20 nM; baseline: negative control set to 0; direction: higher = stronger binding
Target: Hepatocyte nuclear factor 3-alpha (Foxa1, Mus musculus, UniProt P35582, residues 1-468, full length assumed)
UniProt P35582, sequence (whole entry, looked up): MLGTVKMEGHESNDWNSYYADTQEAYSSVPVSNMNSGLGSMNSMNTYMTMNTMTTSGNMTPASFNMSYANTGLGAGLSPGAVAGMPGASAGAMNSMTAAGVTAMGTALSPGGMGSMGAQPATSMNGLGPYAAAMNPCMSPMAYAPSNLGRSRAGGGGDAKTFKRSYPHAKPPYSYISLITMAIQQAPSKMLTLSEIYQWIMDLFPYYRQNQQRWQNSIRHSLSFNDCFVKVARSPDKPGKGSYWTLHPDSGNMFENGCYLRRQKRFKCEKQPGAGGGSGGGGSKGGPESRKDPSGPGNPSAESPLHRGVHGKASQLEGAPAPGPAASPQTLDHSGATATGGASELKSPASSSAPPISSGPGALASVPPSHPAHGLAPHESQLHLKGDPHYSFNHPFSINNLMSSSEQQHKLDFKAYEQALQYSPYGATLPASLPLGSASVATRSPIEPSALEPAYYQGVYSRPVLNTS
Setting: whole designed probe, mean of two concentrations, ends assumed
Under “normalised bound fraction”, `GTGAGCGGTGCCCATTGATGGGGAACTGAAATGGTAGCTAGTAGATGGTGAATTTAAGCAAGATTTGTTCCCTTTCTTCCACTATACGCCTCTAAGGAAATTAAAAAAAAAAAAGGCTTGTTTACTTTGGAATGTGGAGTAAAGAGAGCAACAAGAGATTGAAGTCAAAGAATAGGTAAGTGAGCACTGTAAGGATCTGCAGAGACAGACAGAAAAAGTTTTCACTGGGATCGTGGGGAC` is recorded as 0.421 ratio.
Under “normalised bound fraction”, `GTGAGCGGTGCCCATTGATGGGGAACGAGAGCCCTGGAAGCTCAGAAGAGGCAAGAGGGGCCTACTTCTCCCTTGTTTGGGCTTTGTTTGCTAAATACCAATATTAGATTAGGCAACTCTGCAAACAAAACCAAGGCCTGGCCAGCTGCCCAGGGTGTTTAAAGTCCAAGACATGAAGGCAGGACGTGTGCCCGTGGACTTGCACACGCAAGCAGGCCGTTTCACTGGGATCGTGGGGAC` is recorded as 0.397 ratio.
`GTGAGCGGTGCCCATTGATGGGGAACCATGTACAAACAAAATATGGGTTGTGTAATTTCAGTAATTCCATGTACAAGTTAAACACTCTGATATTTGCATTTATTGCACAATAAAATGTCGTAAACATGAATGCTAACAATCTTTTTTTTTTTTCCTGAGACGGAGTCTTGCTCTATCGCCCAGGCTGGAGTGCAGCGGCACAATCTCTGCTTACTGCCATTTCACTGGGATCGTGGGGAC`: “normalised bound fraction” 0.346 ratio.
`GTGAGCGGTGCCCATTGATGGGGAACGGCAAGGTCTCAGGATGTCAAAGGCTCAAGAAATACAAAAATTAGATATGATGAATACTCTTACCAGCCTAACAGGCTTATTCTCTCCTTTAAGCAAACAATATGGGAATCAAATTATTAAAAGGCTACACAGTGGGTGATTAATCAGAATAAGGGTAGTTTTATTTGAAAATTTATAAGGTTCAACTTACTATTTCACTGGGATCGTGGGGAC`: “normalised bound fraction” 0.471 ratio.
`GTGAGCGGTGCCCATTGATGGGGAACTTCAGTATCCCCATATTACTTCTGAAATTTTAAGAGATAAAACATAATTTGAATATCCAGCCATTGAAAGCACAGCTCTAAAGCTATCTCCTTGTTTACTTTTGATTTATCTCCCTGGAAAAATTCCTGTTTTTTCTGTCTGTCTCAGTGTTGCATTTTGGCTATACTTAATGTACAGCATTTTGCACGTTAGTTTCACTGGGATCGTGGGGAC`: “normalised bound fraction” 0.414 ratio.

Study 5 — method: protein binding microarray; form: double-stranded DNA, one strand shown; sample: in vitro; tested at: not given; baseline: not given; direction: higher = stronger binding
Target: Histone acetyltransferase KAT6A, winged helix 1, GST fusion (KAT6A, Homo sapiens, UniProt Q92794, residues 1-85)
Setting: 8-mer, flanks averaged, mean of 2 arrays, mostly near background
Construct (chain): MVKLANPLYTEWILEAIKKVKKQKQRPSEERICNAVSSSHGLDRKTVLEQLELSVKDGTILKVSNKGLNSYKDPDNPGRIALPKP
The E-score of `ATGCGCCC` is reported as 0.324.
`AAAGCGGT` has an E-score of 0.206.
The E-score of `ACCCGGAC` is reported as 0.239.
`CGACTGGA` gave an E-score of -0.0499.
The E-score of `CCGTACTC` is reported as 0.22.
`CTCACAAC` has an E-score of -0.121.
`AATAATGT` has an E-score of -0.129.
The E-score of `CGCTGCCC` is reported as 0.278.
With `ACGTCGGA` the E-score was 0.0446.
The E-score of `AGGTGTAT` is reported as -0.0847.
`GACGTCTC` gave an E-score of -0.00549.
For `GTTAGCTA`, the E-score was -0.101.
`AGAGAGCA` has an E-score of -0.0573.
`ACGGCGAA` has an E-score of 0.339.
`ATGCGAAC` gave an E-score of 0.091.
With `CATGTTGG` the E-score was -0.0143.
With `CCAAAAAG` the E-score was -0.134.

Excerpt of the above (study 5):
`CGACTGGA` gave an E-score of -0.0499.
The E-score of `CCGTACTC` is reported as 0.22.
`CTCACAAC` has an E-score of -0.121.
`AATAATGT` has an E-score of -0.129.
The E-score of `CGCTGCCC` is reported as 0.278.
With `ACGTCGGA` the E-score was 0.0446.
The E-score of `AGGTGTAT` is reported as -0.0847.
`GACGTCTC` gave an E-score of -0.00549.
For `GTTAGCTA`, the E-score was -0.101.
`AGAGAGCA` has an E-score of -0.0573.
